Assay results gathered from unrelated publications.
Every numbered part comes from another study and shows a few of its results, in no order.
Chain of UniProt Q6PHR2 (whole entry, looked up): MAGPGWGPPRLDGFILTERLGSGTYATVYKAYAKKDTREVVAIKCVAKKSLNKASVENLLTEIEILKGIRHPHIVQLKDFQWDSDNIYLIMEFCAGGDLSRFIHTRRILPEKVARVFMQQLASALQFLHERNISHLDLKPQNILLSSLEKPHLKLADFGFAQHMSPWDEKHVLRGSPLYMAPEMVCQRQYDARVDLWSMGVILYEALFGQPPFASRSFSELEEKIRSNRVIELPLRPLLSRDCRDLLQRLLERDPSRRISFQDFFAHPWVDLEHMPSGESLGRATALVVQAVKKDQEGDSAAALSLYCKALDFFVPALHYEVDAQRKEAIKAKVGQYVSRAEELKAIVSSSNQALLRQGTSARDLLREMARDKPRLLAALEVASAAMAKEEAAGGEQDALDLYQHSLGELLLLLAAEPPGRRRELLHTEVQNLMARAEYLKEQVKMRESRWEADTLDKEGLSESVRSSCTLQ
Chain of UniProt P06239 (whole entry, looked up): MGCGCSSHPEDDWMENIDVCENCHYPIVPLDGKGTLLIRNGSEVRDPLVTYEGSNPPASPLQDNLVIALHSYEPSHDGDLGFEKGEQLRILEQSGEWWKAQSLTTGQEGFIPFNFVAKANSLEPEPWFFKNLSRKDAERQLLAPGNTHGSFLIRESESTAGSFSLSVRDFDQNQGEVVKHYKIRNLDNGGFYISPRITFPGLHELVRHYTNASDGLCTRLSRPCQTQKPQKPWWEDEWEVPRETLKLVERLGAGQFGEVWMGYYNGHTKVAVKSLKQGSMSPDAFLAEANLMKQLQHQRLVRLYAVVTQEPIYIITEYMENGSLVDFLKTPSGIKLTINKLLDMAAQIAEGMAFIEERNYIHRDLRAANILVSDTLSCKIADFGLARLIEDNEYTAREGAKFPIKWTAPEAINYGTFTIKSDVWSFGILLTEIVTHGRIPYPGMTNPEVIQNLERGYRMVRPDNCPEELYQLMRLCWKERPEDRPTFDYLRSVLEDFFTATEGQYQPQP
Chain of UniProt Q9UL54 (whole entry, looked up): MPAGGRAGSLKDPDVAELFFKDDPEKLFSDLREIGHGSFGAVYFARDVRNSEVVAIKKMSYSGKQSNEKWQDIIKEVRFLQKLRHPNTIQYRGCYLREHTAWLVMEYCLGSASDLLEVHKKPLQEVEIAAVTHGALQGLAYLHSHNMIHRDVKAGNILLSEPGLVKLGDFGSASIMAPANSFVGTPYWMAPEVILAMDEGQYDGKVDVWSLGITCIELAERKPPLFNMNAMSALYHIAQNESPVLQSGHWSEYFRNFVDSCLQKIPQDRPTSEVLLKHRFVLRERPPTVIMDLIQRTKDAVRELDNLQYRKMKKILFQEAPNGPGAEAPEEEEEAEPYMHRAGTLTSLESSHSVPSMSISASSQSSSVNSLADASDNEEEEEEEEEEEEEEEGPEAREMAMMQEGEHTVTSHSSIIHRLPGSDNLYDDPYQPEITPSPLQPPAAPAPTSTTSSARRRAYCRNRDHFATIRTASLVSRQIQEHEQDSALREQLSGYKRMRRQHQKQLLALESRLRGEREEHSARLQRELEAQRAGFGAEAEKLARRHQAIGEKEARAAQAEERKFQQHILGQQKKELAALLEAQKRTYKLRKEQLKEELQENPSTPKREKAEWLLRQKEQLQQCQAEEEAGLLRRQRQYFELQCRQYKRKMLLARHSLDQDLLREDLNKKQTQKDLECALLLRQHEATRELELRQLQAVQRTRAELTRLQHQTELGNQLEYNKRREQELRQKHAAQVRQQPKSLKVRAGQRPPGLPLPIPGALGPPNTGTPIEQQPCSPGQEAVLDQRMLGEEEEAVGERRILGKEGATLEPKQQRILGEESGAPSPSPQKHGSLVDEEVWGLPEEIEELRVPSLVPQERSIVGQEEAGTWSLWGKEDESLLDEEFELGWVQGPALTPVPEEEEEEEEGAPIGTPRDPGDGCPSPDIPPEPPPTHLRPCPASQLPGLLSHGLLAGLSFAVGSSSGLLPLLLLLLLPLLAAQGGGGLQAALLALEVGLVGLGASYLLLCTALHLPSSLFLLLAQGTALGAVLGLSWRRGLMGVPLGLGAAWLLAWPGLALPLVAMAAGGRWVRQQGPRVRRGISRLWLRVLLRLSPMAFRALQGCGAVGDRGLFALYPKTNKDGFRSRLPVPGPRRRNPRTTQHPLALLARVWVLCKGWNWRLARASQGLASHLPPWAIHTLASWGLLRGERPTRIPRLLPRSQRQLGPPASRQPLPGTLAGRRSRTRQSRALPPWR
Chain of UniProt P9WI81 (whole entry, looked up): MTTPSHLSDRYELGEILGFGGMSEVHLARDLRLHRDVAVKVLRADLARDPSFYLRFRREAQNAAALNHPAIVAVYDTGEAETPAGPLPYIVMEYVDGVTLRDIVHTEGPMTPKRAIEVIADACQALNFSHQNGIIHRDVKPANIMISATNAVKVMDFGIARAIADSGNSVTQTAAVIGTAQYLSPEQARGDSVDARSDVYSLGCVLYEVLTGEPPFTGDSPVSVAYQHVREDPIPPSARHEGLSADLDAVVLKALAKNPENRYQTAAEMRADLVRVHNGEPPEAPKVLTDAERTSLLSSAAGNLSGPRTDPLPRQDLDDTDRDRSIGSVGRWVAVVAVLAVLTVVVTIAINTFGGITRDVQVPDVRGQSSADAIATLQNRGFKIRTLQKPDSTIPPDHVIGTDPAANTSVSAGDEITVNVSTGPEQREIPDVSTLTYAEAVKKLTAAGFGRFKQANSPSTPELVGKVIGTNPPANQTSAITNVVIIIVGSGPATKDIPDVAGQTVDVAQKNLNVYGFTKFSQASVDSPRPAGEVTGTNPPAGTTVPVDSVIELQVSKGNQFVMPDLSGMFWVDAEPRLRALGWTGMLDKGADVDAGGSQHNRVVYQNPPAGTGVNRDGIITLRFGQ
Chain of UniProt P11362 (whole entry, looked up): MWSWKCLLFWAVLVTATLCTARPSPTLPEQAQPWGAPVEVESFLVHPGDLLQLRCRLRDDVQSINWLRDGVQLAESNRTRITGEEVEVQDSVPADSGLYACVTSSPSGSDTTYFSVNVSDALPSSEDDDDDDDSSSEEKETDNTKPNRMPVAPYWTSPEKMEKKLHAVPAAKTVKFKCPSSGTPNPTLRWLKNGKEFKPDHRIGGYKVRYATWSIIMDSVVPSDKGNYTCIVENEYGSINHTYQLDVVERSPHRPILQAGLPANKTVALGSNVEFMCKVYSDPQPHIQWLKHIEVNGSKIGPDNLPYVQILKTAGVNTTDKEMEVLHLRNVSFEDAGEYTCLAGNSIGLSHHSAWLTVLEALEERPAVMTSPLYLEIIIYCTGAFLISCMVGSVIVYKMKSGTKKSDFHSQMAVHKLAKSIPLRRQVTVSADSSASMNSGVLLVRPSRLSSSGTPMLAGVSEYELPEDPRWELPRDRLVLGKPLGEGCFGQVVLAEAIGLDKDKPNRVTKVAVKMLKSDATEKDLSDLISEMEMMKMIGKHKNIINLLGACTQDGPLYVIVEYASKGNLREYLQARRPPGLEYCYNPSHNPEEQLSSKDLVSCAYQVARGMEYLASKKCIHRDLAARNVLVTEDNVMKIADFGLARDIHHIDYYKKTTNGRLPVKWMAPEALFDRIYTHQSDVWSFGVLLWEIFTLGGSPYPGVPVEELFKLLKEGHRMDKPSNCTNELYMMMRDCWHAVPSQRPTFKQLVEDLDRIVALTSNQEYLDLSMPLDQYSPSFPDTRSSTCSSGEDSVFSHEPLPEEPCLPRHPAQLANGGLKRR
Chain of UniProt Q99558 (whole entry, looked up): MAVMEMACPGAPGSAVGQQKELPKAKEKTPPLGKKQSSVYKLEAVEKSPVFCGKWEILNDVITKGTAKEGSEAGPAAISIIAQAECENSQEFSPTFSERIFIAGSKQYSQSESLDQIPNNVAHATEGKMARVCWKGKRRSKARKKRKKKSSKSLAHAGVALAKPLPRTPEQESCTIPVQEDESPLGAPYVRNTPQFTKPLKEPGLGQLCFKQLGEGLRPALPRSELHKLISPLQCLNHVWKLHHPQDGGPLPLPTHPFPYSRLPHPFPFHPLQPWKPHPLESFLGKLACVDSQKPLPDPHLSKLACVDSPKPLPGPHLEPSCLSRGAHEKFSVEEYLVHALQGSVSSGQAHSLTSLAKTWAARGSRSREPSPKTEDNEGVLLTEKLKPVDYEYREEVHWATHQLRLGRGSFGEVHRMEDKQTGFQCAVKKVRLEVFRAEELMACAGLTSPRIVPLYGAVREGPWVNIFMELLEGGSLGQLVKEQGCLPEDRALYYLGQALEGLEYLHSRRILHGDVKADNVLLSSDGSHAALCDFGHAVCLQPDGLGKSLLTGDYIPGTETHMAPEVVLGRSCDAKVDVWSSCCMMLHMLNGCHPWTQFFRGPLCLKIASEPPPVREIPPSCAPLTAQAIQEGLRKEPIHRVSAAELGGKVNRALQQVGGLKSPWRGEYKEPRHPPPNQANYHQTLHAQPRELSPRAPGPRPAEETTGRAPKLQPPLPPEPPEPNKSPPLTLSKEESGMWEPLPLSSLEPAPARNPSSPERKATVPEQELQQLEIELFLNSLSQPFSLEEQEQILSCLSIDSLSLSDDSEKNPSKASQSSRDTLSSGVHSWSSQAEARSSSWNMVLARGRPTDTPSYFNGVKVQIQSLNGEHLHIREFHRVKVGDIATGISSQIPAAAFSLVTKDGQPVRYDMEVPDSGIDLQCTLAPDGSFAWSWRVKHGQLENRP

Set 1 — cell line: HEK-293T-ACE2-TMPRSS2; method: cell count; concentration: 10 µM
Compound	viability [%]
O=C(Cn1ncc(Cl)c(Cl)c1=O)c1ccc(Cl)s1	75
COc1ccc(CCN(C)Cc2cnc(S(C)(=O)=O)n2CC2CCCO2)cc1OC (stereo not shown)	109
CCN(CCCNC(=O)c1ccc(Nc2ccnc(-c3ccc(F)cc3)n2)cc1)Cc1ccccc1	68
Cc1ccsc1C(=O)Nc1cccc(OC(F)(F)F)c1	74
CCc1n[nH]c(SCC(=O)NC(C)CN2CCc3ccccc3C2)n1 (stereo not shown)	80
CC(=O)Nc1ccc(Cl)c(C(=O)N(C)CCCN2CCCCCC2)c1	69
CCCCn1c(N)c(C#N)c2nc3ccccc3nc21	67
Cc1ccc(C2C3=C(COC3=O)Nc3c2c(=O)[nH]c(=O)n3CC(C)C)cc1 (stereo not shown)	75
COc1ccc(NC(=O)C2CCN(C(=O)C3Sc4ccccc4NC3=O)CC2)cc1 (stereo not shown)	66
CC(=O)NOCc1cccc(-c2cc(F)ccc2C)c1	65
CCn1nccc1C(=O)N1CCC(c2cc(Cc3ccccc3)n[nH]2)CC1	68
COc1ccc(S(=O)(=O)N2CCC[C@@H]2C(=O)NCCc2csc(C)n2)cc1Cl	65
Cc1ccc2[nH]c(C(=O)NCc3cccs3)c(NCc3ccc(Cl)cc3)c2c1	103
Cc1onc(-c2ccccc2Cl)c1-c1nc(CC2CCN(C)CC2)no1	66
c1cc(OCCn2ccnc2)cc(-c2ccnc3[nH]ccc23)c1	75
CCn1nc(C)c(C(=O)Nc2cccc(NC(=O)c3ccccc3OC)c2)c1C	76
C=C(Cl)COC(=O)c1ccc2c(c1)S(=O)(=O)N=C1CCCCCN12	95
CCCCCNC(=O)c1ccc(Oc2nccnc2N2CCC(C)CC2)cc1	104
O=C(NCC(F)(F)F)c1ccc(CN(Cc2cc(Cl)cc3c2OCOC3)C2CC2)cc1	101
Cc1ccc(NC(=O)C(C)Oc2cc(C)nc(N3CCN(c4ccccc4)CC3)n2)cc1 (stereo not shown)	104
COc1ccc2c(c1)[nH]c1c(C)nccc12	86
Cc1ccc(C)c(N2CCN(C(=O)CCCn3cnc4cc(S(=O)(=O)N(C)C)ccc43)CC2)c1	66
CCN(CC)CCNC(=O)c1c(C)oc2c1C(=O)c1ccccc1C2=O	77
Cc1cc2c(cc1O)NC(=O)CC2c1cc(C(C)(C)C)[nH]n1 (stereo not shown)	103
COc1ccc(CN2C[C@@H](CO)[C@H](c3nc(C)no3)C2)cc1OC	112

Set 2 — cell line: HEK-293T-ACE2; method: Hoechst nuclei count; concentration: concentration not given; notes: counter-screen; baseline: vehicle
Compound	cell number [%]
COc1cc2nccc(Oc3ccc(NC(=O)C4(C(=O)Nc5ccc(F)cc5)CC4)cc3)c2cc1OC.O=C(O)C[C@H](O)C(=O)O	81.7
CC(C)C[C@H](NC(=O)[C@H](CCc1ccccc1)NC(=O)CN1CCOCC1)C(=O)N[C@@H](Cc1ccccc1)C(=O)N[C@@H](CC(C)C)C(=O)[C@@]1(C)CO1	80.6
Br.Cc1ccc(Sc2ccccc2N2CCNCC2)c(C)c1	96.4
CCCCCOc1ccc(-c2cc(-c3ccc(C(=O)N[C@H]4C[C@@H](O)[C@@H](O)NC(=O)[C@@H]5[C@@H](O)[C@@H](C)CN5C(=O)[C@H]([C@H](O)CC(N)=O)NC(=O)[C@H]([C@H](O)[C@@H](O)c5ccc(O)c(OS(=O)(=O)[O-])c5)NC(=O)[C@@H]5C[C@@H](O)CN5C(=O)[C@H]([C@@H](C)O)NC4=O)cc3)no2)cc1.[Na+]	103
CCC(CC)[C@H](NC(C)=O)[C@@H]1[C@H](O)[C@@H](C(=O)O)C[C@H]1NC(=N)N.O.O.O	105
CC1(C)CCC(CN2CCN(c3ccc(C(=O)NS(=O)(=O)c4ccc(NCC5CCOCC5)c([N+](=O)[O-])c4)c(Oc4cnc5[nH]ccc5c4)c3)CC2)=C(c2ccc(Cl)cc2)C1	1.31
C[C@@H](O)[C@H]1C(=O)N2C(C(=O)O)=C(S[C@@H]3CN[C@H](CNS(N)(=O)=O)C3)[C@H](C)[C@H]12.O	105
COc1cc2c(cc1OC)CC(=O)N(CCCN(C)C[C@H]1Cc3cc(OC)c(OC)cc31)CC2.Cl	109
Cc1ccc(-n2nccn2)c(C(=O)N2CCN(c3nc4cc(Cl)ccc4o3)CC[C@H]2C)c1	95.7
CC(C)(C)c1cc(C(C)(C)C)c(NC(=O)c2c[nH]c3ccccc3c2=O)cc1O	96.5
COc1c(-c2ccc3cc(NS(C)(=O)=O)ccc3c2)cc(-n2ccc(=O)[nH]c2=O)cc1C(C)(C)C	99.6
CCCS(=O)(=O)Nc1ccc(F)c(C(=O)c2c[nH]c3ncc(-c4ccc(Cl)cc4)cc23)c1F	106
CN(C)C/C=C/C(=O)Nc1cc2c(Nc3ccc(F)c(Cl)c3)ncnc2cc1O[C@H]1CCOC1.O=C(O)/C=C\C(=O)O.O=C(O)/C=C\C(=O)O	99.2
CCC[C@H](NC(=O)[C@@H]1[C@H]2CCC[C@H]2CN1C(=O)[C@@H](NC(=O)[C@@H](NC(=O)c1cnccn1)C1CCCCC1)C(C)(C)C)C(=O)C(=O)NC1CC1	101
Cc1cc(Nc2ncc(Cl)c(Nc3ccccc3S(=O)(=O)C(C)C)n2)c(OC(C)C)cc1C1CCNCC1	95

Set 3 — observed: enzyme activity; action: inhibitor; concentration: 0.5 µM; baseline: control
SMILES: O=C1NC(=O)c2c1c1c3ccccc3n3c1c1c2c2ccccc2n1[C@H]1CC[C@@H]3O1
target	remaining activity
ULK3 (Homo sapiens, UniProt Q6PHR2)	33%
MAP3K14 (Homo sapiens, UniProt Q99558)	134%
MAPKAPK2 (Homo sapiens, UniProt P49137)	99.2%
MERTK (Homo sapiens, UniProt Q12866)	13.6%
GSK3B (Homo sapiens, UniProt P49841)	4.6%
MAP2K2 (Homo sapiens, UniProt P36507)	87.9%
TAOK2 (Homo sapiens, UniProt Q9UL54)	57.4%
FGFR1 (Homo sapiens, UniProt P11362)	29.1%
CSNK1G2 (Homo sapiens, UniProt P78368)	81.8%
LCK (Homo sapiens, UniProt P06239)	36.2%
ACVR1B (Homo sapiens, UniProt P36896)	113%
MAPK3 (Homo sapiens, UniProt P27361)	102%
WEE1 (Homo sapiens, UniProt P30291)	16.9%
NEK6 (Homo sapiens, UniProt Q9HC98)	93.1%

Mixed results
Tspo: Translocator protein (Tspo, Rattus norvegicus, UniProt P16257)
Chain of UniProt P16257 (whole entry, looked up): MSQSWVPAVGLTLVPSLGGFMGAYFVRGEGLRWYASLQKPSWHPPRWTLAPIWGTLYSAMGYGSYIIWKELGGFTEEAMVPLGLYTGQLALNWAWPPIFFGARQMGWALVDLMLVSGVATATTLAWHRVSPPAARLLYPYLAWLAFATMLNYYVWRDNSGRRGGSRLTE
SMILES	target	observed	method	concentration	quantity	result
COc1cc(-c2cn(C3CCc4ccccc4N(CC(F)(F)F)C3=O)nn2)ccc1-n1ccc(C)n1 (stereo not shown)	CDPK1 (Plasmodium falciparum, UniProt P62344)	cell-free assay	competition with immobilised ligand	1 µM	remaining binding	99%
Cc1c(N2CCNCC2)nc2ccc(Br)cc2c1C(=O)NC[C@H](CCC(=O)O)c1ccccc1Cl	Tspo	radioligand binding	radioligand displacement	10 µM	inhibition	20%
CNC(=O)c1cc(C(=O)NC2CC2)cn(Cc2ccccc2)c1=O	Tspo	radioligand binding	radioligand displacement	10 µM	inhibition	7.71%
CCC(=O)N[C@H]1CC[C@@H](C(=O)N(C)c2ccc(-c3nc4ccccc4o3)cc2)C1	pknB (Mycobacterium tuberculosis, UniProt P9WI81)	cell-free assay	competition with immobilised ligand	1 µM	remaining binding	86%

A few entries again (set 1):
Compound	viability [%]
O=C(Cn1ncc(Cl)c(Cl)c1=O)c1ccc(Cl)s1	75
COc1ccc(CCN(C)Cc2cnc(S(C)(=O)=O)n2CC2CCCO2)cc1OC (stereo not shown)	109
CCN(CCCNC(=O)c1ccc(Nc2ccnc(-c3ccc(F)cc3)n2)cc1)Cc1ccccc1	68
Cc1ccsc1C(=O)Nc1cccc(OC(F)(F)F)c1	74
CCc1n[nH]c(SCC(=O)NC(C)CN2CCc3ccccc3C2)n1 (stereo not shown)	80
CC(=O)Nc1ccc(Cl)c(C(=O)N(C)CCCN2CCCCCC2)c1	69
